Measurements of several laboratories.
Protocols differ between the studies behind these lines. ± gives the spread as reported.

| SMILES | target | assay | system | setting | how to read | measurement | value |
| --- | --- | --- | --- | --- | --- | --- | --- |
| O=C(O)C1OC(OC2C(COS(=O)(=O)O)OC(OC3C(C(=O)O)OC(OC4C(COS(=O)(=O)O)OC(OC5C(C(=O)O)OC(OC6C(COS(=O)(=O)O)OC(OC7C(C(=O)O)OC(OC8C(COS(=O)(=O)O)OC(OC9C(C(=O)O)OC(OC%10C(COS(=O)(=O)O)OC(OC%11C(C(=O)O)OC(Oc%12ccc([N+](=O)[O-])cc%12)C(O)C%11O)C(NS(=O)(=O)O)C%10O)C(OS(=O)(=O)O)C9O)C(NS(=O)(=O)O)C8O)C(OS(=O)(=O)O)C7O)C(NS(=O)(=O)O)C6OS(=O)(=O)O)C(OS(=O)(=O)O)C5O)C(NS(=O)(=O)O)C4O)C(OS(=O)(=O)O)C3O)C(NS(=O)(=O)O)C2OS(=O)(=O)O)C(O)C(O)C1OC1OC(COS(=O)(=O)O)C(O)C(O)C1NS(=O)(=O)O (centres unmarked) | human factor Xa | anti-factor Xa activity, chromogenic | human plasma | – | – | IC50 | 0.067 µg/mL |
| COCC1CN(C2CCN(c3cc(OC)c(Nc4ncc(Br)c(Nc5ccc6c(c5P(C)(C)=O)OCCO6)n4)cc3C)CC2)C1 | EGFR Del19/T790M/C797S | western blot | Ba/F3 EGFR Del19/T790M/C797S, mouse xenograft, tumour tissue | oral, 20 mg/kg single dose, 1 to 8 h | – | p-EGFR level | inhibited |
| C[C@@H](N)C1CCN(S(=O)(=O)c2cccc3c(=O)[nH]ccc23)CC1 | ROCK | MLC2 phosphorylation, inhibitor, Western blot | hBMVEC | 1 h, with: LPA 5 min | – | EC50 | 0.95 µM |
| C[C@@H]1O[C@@H](O[C@H]2[C@H](O[C@H]3CC[C@@]4(C)C(CC[C@]5(C)C4CC=C4C6CC(C)(C)CC[C@]6(C(=O)O)CC[C@]45C)C3(C)C)OC[C@H](O[C@@H]3O[C@H](CO)[C@@H](O)[C@H](O)[C@H]3O)[C@@H]2O)[C@H](O)[C@H](O)[C@H]1O (some centres unmarked) | PPARs | reporter gene, agonist | HepG2 transfected PPRE-luciferase and PPAR | 20 h | – | EC50 | 10.8 ± 4.2 µM |
| COc1ccc2c(c1)c1c(C)c3cnccc3c(C)c1n2CCCN1CCN(C)CC1 | PDGFR-β NHE 41-mer G-quadruplex DNA | CD thermal melt | – | – | reference: no compound | ΔTm | 9 °C |
| Cc1sc2ncn(CC(=O)N3CCCC3)c(=O)c2c1-c1cccc(Br)c1 | NMDA receptor, mouse | single-channel current, outside-out patch | cortical neurons | concentration not given, with: Ca2+ 0.5 mM | – | amplitude 3 area | 4% |
| CC(=O)N[C@@H](Cc1ccc(O)cc1)CN(CC(=O)N[C@@H](CCCCN)CN(CC(=O)N[C@@H](Cc1ccccc1)CN(CC(=O)N[C@H]1CCCCNc2c(F)c(F)c(c(F)c2F)S(=O)(=O)c2c(F)c(F)c(c(F)c2F)NCCCC[C@@H](CN(CC(=O)N[C@@H](C)CN(CC(N)=O)S(=O)(=O)CCN)S(C)(=O)=O)NC(=O)CN(S(=O)(=O)CC(C)C)C[C@H](CC(C)C)NC(=O)CN(S(=O)(=O)CCN)C1)S(=O)(=O)CC(C)C)S(=O)(=O)CCN)S(C)(=O)=O | CREB | reporter gene, inhibitor, CRE Renilla luciferase | HEK-293T | 30 min, with: forskolin 10 µM for 5 h | – | IC50 | > 100 µM |
| C[C@@H]1O[C@@H](O[C@H]2[C@H](O[C@H]3CC[C@@]4(C)[C@@H](CC[C@]5(C)[C@@H]4CC=C4[C@@H]6CC(C)(C)CC[C@]6(C(=O)O)CC[C@]45C)[C@]3(C)CO)OC[C@H](O)[C@@H]2O)[C@H](O)[C@H](O)[C@H]1O | PPARs | reporter gene, agonist | HepG2 transfected PPRE-luciferase and PPAR | 20 h | – | EC50 | 1.7 ± 0.5 µM |
| Cc1ncc(Cl)cc1NC(=O)c1cc(-c2ccc(F)c(O)c2)on1 | mitochondrial permeability transition pore, mouse | – | isolated mouse liver mitochondria | 1.56 µM | reference: untreated | calcium retention capacity ratio | 9.12 ± 0.88 |
| CCN1CCN(Cc2ccc(NC(=O)c3ccc(C)c(NC(=O)c4cncc(-c5cccs5)c4)c3)cc2C(F)(F)F)CC1 | SRC family kinases | inhibitor, Western blot | NCI-H2286 and HCC366 | 0.5 µM, 3 h | – | phosphorylation | inhibited |
| CCc1nc2sc(C)c(C)c2c(=O)n1N | none | weak affinity chromatography-MS | ethanolamine reference column | – | – | adjusted retention time | 1.14 min |
| CCCCCCCCCC1N=C(N)N=C(N)N1c1ccc(Cl)cc1 (racemic) | membrane disruption | SYTOX Green uptake | Escherichia coli, ATCC 25922 | – | – | EC50 | 150 µM |
| O=C(Cn1ccnc1)N[C@H]1C[C@@H]1c1ccc(OCc2ccccc2)cc1 | aromatase (CYP19), recombinant | absorption spectroscopy | – | no androstenedione | – | Soret peak wavelength | 424 nm |
| CN1CCN(C(=O)c2ccc(-c3ccc4c(c3)/C(=C/c3ccc(N5CCOCC5)cc3)C(=O)N4)cc2)CC1 | FGFR3 | – | – | – | reference: IC50 FGFR3 over lowest IC50 | selectivity ratio | 1 |
| CC(=O)N[C@@H](Cc1ccc(O)cc1)CN(CC(=O)N[C@@H](CCCCN)CN(CC(=O)N[C@@H](Cc1ccccc1)CN(CC(=O)N[C@H]1CCCCNc2c(F)c(F)c(c(F)c2F)S(=O)(=O)c2c(F)c(F)c(c(F)c2F)NCCCC[C@@H](CN(CC(=O)N[C@@H](C)CN(CC(N)=O)S(C)(=O)=O)S(C)(=O)=O)NC(=O)CN(S(=O)(=O)c2ccc3ccccc3c2)C[C@H](Cc2ccccc2)NC(=O)CN(S(=O)(=O)CCN)C1)S(=O)(=O)CC(C)C)S(=O)(=O)CCN)S(C)(=O)=O | CREB | reporter gene, inhibitor, CRE Renilla luciferase | HEK-293T | 30 min, with: forskolin 10 µM for 5 h | – | IC50 | 38.1 ± 7.02 µM |
| CC1OC(Oc2c(-c3ccc(O)cc3)oc3cc(O)cc(O)c3c2=O)C(OC(=O)C=Cc2ccc(O)cc2)C(O)C1OC(=O)C=Cc1ccc(O)cc1 (centres unmarked) | CCR2 | macrophage infiltration | mouse, thioglycollate peritonitis, peritoneum | intraperitoneal, 50 mg/kg | – | inhibition | 75.7% |
| CC(=O)N[C@@H](Cc1ccc(O)cc1)CN(CC(=O)N[C@@H](CCCCN)CN(CC(=O)N[C@@H](Cc1ccccc1)CN(CC(=O)N[C@H]1CCCCNc2c(F)c(F)c(c(F)c2F)S(=O)(=O)c2c(F)c(F)c(c(F)c2F)NCCCC[C@@H](CN(CC(=O)N[C@@H](C)CN(CC(N)=O)S(=O)(=O)CCNC(=N)N)S(C)(=O)=O)NC(=O)CN(S(=O)(=O)CC(C)C)C[C@H](CC(C)C)NC(=O)CN(S(=O)(=O)CCN)C1)S(=O)(=O)CC(C)C)S(=O)(=O)CCN)S(C)(=O)=O | CREB | reporter gene, inhibitor, CRE Renilla luciferase | HEK-293T | 30 min, with: forskolin 10 µM for 5 h | – | IC50 | > 100 µM |
| C[n+]1ccc(/C=N/NC(=O)c2cncc(C(=O)N/N=C/c3cc[n+](C)c4ccccc34)n2)c2ccccc21 | G-quadruplex DNA 22CTA antiparallel | UV melting | – | 6 µM, K10 buffer, with: DNA 3 µM | – | delta Tm | 25 °C |
| CC[C@H](C)[C@H](NC(=O)[C@H](CCC(=O)O)NC(=O)[C@H](CO)NC(=O)[C@@H](NC(=O)[C@@H](N)CO)C(C)C)C(=O)N[C@@H](CCC(N)=O)C(=O)N[C@@H](CC(C)C)C(=O)N[C@@H](CCSC)C(=O)N[C@@H](Cc1c[nH]cn1)C(=O)N[C@@H](CC(N)=O)C(=O)N[C@@H](CC(C)C)C(=O)NCC(=O)N[C@@H](CCCCN)C(=O)N[C@@H](Cc1c[nH]cn1)C(=O)N[C@@H](CC(C)C)C(=O)N[C@@H](CC(N)=O)C(=O)N[C@@H](CO)C(=O)N[C@@H](CCSC)C(=O)N[C@@H](CCC(=O)O)C(=O)N[C@@H](CCCNC(=N)N)C(=O)N[C@H](C(=O)N[C@@H](CCC(=O)O)C(=O)N[C@@H](Cc1c[nH]c2ccccc12)C(=O)N[C@@H](CC(C)C)C(=O)N[C@@H](CCCNC(=N)N)C(=O)N[C@@H](CCCCN)C(=O)N[C@@H](CCCCN)C(=O)N[C@@H](CC(C)C)C(=O)N[C@@H](CCC(N)=O)C(=O)N[C@@H](CC(=O)O)C(=O)N[C@H](C(=O)N[C@@H](Cc1c[nH]cn1)C(=O)N[C@@H](CC(N)=O)C(=O)N[C@@H](Cc1ccccc1)C(=O)O)C(C)C)C(C)C | PTH1 receptor | cAMP level, Epac FRET sensor | HEK293 expressing dynamin K44A | concentration not given, after ligand washout | up to | time to diminished cAMP | ~5 min |
| CC(=O)N[C@@H](Cc1ccc(O)cc1)CN(CC(=O)N[C@@H](CCCCNC(=N)N)CN(CC(=O)N[C@@H](Cc1ccccc1)CN(CC(=O)N[C@H]1CCCCNc2c(F)c(F)c(c(F)c2F)S(=O)(=O)c2c(F)c(F)c(c(F)c2F)NCCCC[C@@H](CN(CC(=O)N[C@@H](C)CN(CC(N)=O)S(C)(=O)=O)S(C)(=O)=O)NC(=O)CN(S(=O)(=O)CC(C)C)C[C@H](CC(C)C)NC(=O)CN(S(=O)(=O)CCNC(=N)N)C1)S(=O)(=O)CC(C)C)S(=O)(=O)CCNC(=N)N)S(C)(=O)=O | CREB | reporter gene, inhibitor, CRE Renilla luciferase | HEK-293T | 30 min, with: forskolin 10 µM for 5 h | – | IC50 | 67.9 ± 15.2 µM |

A few entries again:
| SMILES | target | assay | system | setting | how to read | measurement | value |
| --- | --- | --- | --- | --- | --- | --- | --- |
| O=C(O)C1OC(OC2C(COS(=O)(=O)O)OC(OC3C(C(=O)O)OC(OC4C(COS(=O)(=O)O)OC(OC5C(C(=O)O)OC(OC6C(COS(=O)(=O)O)OC(OC7C(C(=O)O)OC(OC8C(COS(=O)(=O)O)OC(OC9C(C(=O)O)OC(OC%10C(COS(=O)(=O)O)OC(OC%11C(C(=O)O)OC(Oc%12ccc([N+](=O)[O-])cc%12)C(O)C%11O)C(NS(=O)(=O)O)C%10O)C(OS(=O)(=O)O)C9O)C(NS(=O)(=O)O)C8O)C(OS(=O)(=O)O)C7O)C(NS(=O)(=O)O)C6OS(=O)(=O)O)C(OS(=O)(=O)O)C5O)C(NS(=O)(=O)O)C4O)C(OS(=O)(=O)O)C3O)C(NS(=O)(=O)O)C2OS(=O)(=O)O)C(O)C(O)C1OC1OC(COS(=O)(=O)O)C(O)C(O)C1NS(=O)(=O)O (centres unmarked) | human factor Xa | anti-factor Xa activity, chromogenic | human plasma | – | – | IC50 | 0.067 µg/mL |
| COCC1CN(C2CCN(c3cc(OC)c(Nc4ncc(Br)c(Nc5ccc6c(c5P(C)(C)=O)OCCO6)n4)cc3C)CC2)C1 | EGFR Del19/T790M/C797S | western blot | Ba/F3 EGFR Del19/T790M/C797S, mouse xenograft, tumour tissue | oral, 20 mg/kg single dose, 1 to 8 h | – | p-EGFR level | inhibited |
